Measured values from different studies.
Protocols differ between the studies behind these lines. “And” joins repeats or separate records; there may be more than shown. ± marks the error that the study gave. Values after ≈ are worked out from the molar mass of the structure shown.

| Compound | target or system | assay | system | conditions | scale | endpoint | result |
| --- | --- | --- | --- | --- | --- | --- | --- |
| O=C(N/N=C/c1ccc(C[n+]2ccccc2)cc1)c1cc(C(=O)N/N=C/c2ccc(C[n+]3ccccc3)cc2)ncn1 | 22CTA telomeric G4-DNA antiparallel | FRET melting |  | 1 µM, K10 buffer, DNA 0.2 µM, together with: ds26 10 µM |  | ΔTm | 3.6 ± 0.7 °C |
| COC1OC(C)C(OC2OC(C)C(OS(=O)(=O)O)C(OC3OC(C)C(OC4OC(C)C(OS(=O)(=O)O)C(OC5OC(C)C(OC6OC(C)C(OS(=O)(=O)O)C(OC7OC(C)C(OS(=O)(=O)O)C(OS(=O)(=O)O)C7OS(=O)(=O)O)C6OS(=O)(=O)O)C(OS(=O)(=O)O)C5OS(=O)(=O)O)C4OS(=O)(=O)O)C(OS(=O)(=O)O)C3OS(=O)(=O)O)C2OS(=O)(=O)O)C(OS(=O)(=O)O)C1OS(=O)(=O)O (stereo not drawn) |  |  | human plasma | 64 µg/mL |  | activated partial thromboplastin time | 343 s and 350 s |
| COC1CN([C@H]2CC[C@H]([C@@]3(C)Oc4c(Cl)cc(C(=O)NCc5c(SC)cc(C)[nH]c5=O)c(C)c4O3)CC2)C1 |  | RNA-seq, measured: PFKFB2 mouse homolog | mouse, HT-1376 xenograft, whole blood | dose not given | reference: vehicle | log2 fold change | 0.243 |
| C=CC(=O)Nc1cccc(Cn2ncc3cnc(Nc4cnn(CCOC)c4)nc32)c1 | ROCK2 human | binding, KINOMEscan |  | 100 nM | lower = stronger binding | percent of control | 47% |
| COC1OC(C)C(OS(=O)(=O)O)C(OC2OC(C)C(OS(=O)(=O)O)C(OC3OC(C)C(OS(=O)(=O)O)C(OC4OC(C)C(OS(=O)(=O)O)C(OC5OC(C)C(OS(=O)(=O)O)C(OC6OC(C)C(OS(=O)(=O)O)C(OS(=O)(=O)O)C6O)C5O)C4O)C3O)C2O)C1O (stereo not drawn) |  |  | human plasma | 128 µg/mL |  | activated partial thromboplastin time | 36.5 ± 0.3 s |
| C=CC(=O)N1[C@@H](c2ccc3c(c2)OCO3)c2[nH]c3ccccc3c2C[C@H]1C(=O)N1CCN(C)CC1 | human cyclin E1 N112C-3xFLAG:CDK2 | co-IP with TMT proteomics, measured: PRPF8 |  | concentration not given, Q6P2Q9 | reference: wild type DMSO | relative co-enrichment | 136% |
| c1ccc(-c2n[nH]cc2-c2ccnc3ccccc23)nc1 | YAK1 (Candida albicans) | kinase binding, MIB/MS competition | Candida albicans lysate | 1 µM | reference: DMSO | log2 fold change | -0.28 |
| CO[C@@H]1[C@@H](OC(N)=O)[C@@H](O)[C@H](Oc2ccc3c(O)c(NC(=O)c4ccc(O)c(CC=C(C)C)c4)c(=O)oc3c2C)OC1(C)C | HCT-116 parental |  |  | 300 µM | reference: untreated | colony survival | 0.417% |
| COC1OC(C)C(OS(=O)(=O)O)C(OC2OC(C)C(OS(=O)(=O)O)C(OC3OC(C)C(OS(=O)(=O)O)C(OC4OC(C)C(OS(=O)(=O)O)C(OC5OC(C)C(OS(=O)(=O)O)C(OC6OC(C)C(OS(=O)(=O)O)C(OC7OC(C)C(OS(=O)(=O)O)C(OC8OC(C)C(OS(=O)(=O)O)C(OC9OC(C)C(OS(=O)(=O)O)C(OC%10OC(C)C(OS(=O)(=O)O)C(OC%11OC(C)C(OS(=O)(=O)O)C(OS(=O)(=O)O)C%11O)C%10O)C9O)C8O)C7O)C6O)C5O)C4O)C3O)C2O)C1O (stereo not drawn) |  |  | human plasma | 128 µg/mL |  | activated partial thromboplastin time | 43.5 ± 0.3 s |
| O=C(N/N=C/c1ccc2c(ccc[n+]2Cc2ccccc2)c1)c1cccc(C(=O)N/N=C/c2ccc3c(ccc[n+]3Cc3ccccc3)c2)n1 | 22CTA telomeric G4-DNA antiparallel | FRET melting |  | 1 µM, K10 buffer, DNA 0.2 µM |  | ΔTm | 16.3 ± 0.5 °C |
| Cc1ncsc1-c1ccc(C(C)NC(=O)C2CC(O)CN2C(=O)C(NC(=O)CCCCCCCCCCN2CCCC(Nc3ncc(Cl)c(Nc4ccccc4S(=O)(=O)C(C)C)n3)C2)C(C)(C)C)cc1 (stereo not drawn) | 22Rv1 | RNA-seq, measured: OSBPL5 mRNA |  | concentration not given | reference: DMSO | log2 fold change | -1.66 |
| CC[n+]1cccc2cc(/C=N/NC(=O)c3cccc(C(=O)N/N=C/c4ccc5c(ccc[n+]5CC)c4)n3)ccc21 | 22CTA telomeric G4-DNA antiparallel | FRET melting |  | 1 µM, K10 buffer, DNA 0.2 µM |  | ΔTm | 15.1 ± 0.5 °C |
| Nc1ncc(-c2cc(-c3cnn(CC(F)(F)F)c3)ncc2F)nc1C(=O)NC1CNCC(F)C1 (stereo not drawn) | TNK1 | KINOMEscan |  | 1 µM | reference: DMSO control | remaining binding | 72% |
| O=c1c(Oc2ccccc2)c(C(F)(F)F)oc2c(O)c(O)ccc12 | ROC1-CUL1 E3 subcomplex | Cdc34-ubiquitin discharge |  | 300 µM | reference: input | Cdc34b-ubiquitin remaining | 26% |
| O=C(N/N=C/c1cc[n+](CC2CC2)c2ccccc12)c1cccc(C(=O)N/N=C/c2cc[n+](CC3CC3)c3ccccc23)n1 | 22CTA telomeric G4-DNA antiparallel | FRET melting |  | 1 µM, K10 buffer, DNA 0.2 µM, together with: ds26 10 µM |  | ΔTm | 17.9 ± 0.5 °C |
| Nc1nc2cc(CC[C@H]3C[C@@H](n4ccc5c(N)ncnc54)[C@H](O)[C@@H]3O)ccc2cc1Br |  |  | NCI-H1048 xenograft, mouse | 1.0 mg/kg/day, day 28 |  | %ΔTGI | 45.5% |
| O=C(N/N=C/c1cc[n+](CC2CC2)c2ccccc12)c1cc(C(=O)N/N=C/c2cc[n+](CC3CC3)c3ccccc23)ncn1 | 22CTA telomeric G4-DNA antiparallel | FRET melting |  | 1 µM, K10 buffer, DNA 0.2 µM, together with: ds26 10 µM |  | ΔTm | 10 ± 0.7 °C |
| O=C(NCc1cccc(Cl)c1)c1ccc(C2CCCCC2)cc1 |  | liver microsome stability | cynomolgus liver microsomes | 1 µM |  | hepatic clearance | 37 mL/min/kg |
| COC1OC(C)C(OC2OC(C)C(O)C(OC3OC(C)C(OC4OC(C)C(O)C(OC5OC(C)C(OC6OC(C)C(O)C(OC7OC(C)C(OC8OC(C)C(O)C(OC9OC(C)C(OC%10OC(C)C(O)C(OS(=O)(=O)O)C%10OS(=O)(=O)O)C(OS(=O)(=O)O)C9OS(=O)(=O)O)C8OS(=O)(=O)O)C(OS(=O)(=O)O)C7OS(=O)(=O)O)C6OS(=O)(=O)O)C(OS(=O)(=O)O)C5OS(=O)(=O)O)C4OS(=O)(=O)O)C(OS(=O)(=O)O)C3OS(=O)(=O)O)C2OS(=O)(=O)O)C(OS(=O)(=O)O)C1OS(=O)(=O)O (stereo not drawn) |  |  | human plasma | 32 µg/mL |  | activated partial thromboplastin time | 62.6 s and 63.7 s and 61.1 s |
| C[n+]1cccc2cc(/C=N/NC(=O)N/N=C/c3ccc4c(ccc[n+]4C)c3)ccc21 | 22CTA telomeric G4-DNA antiparallel | FRET melting |  | 1 µM, K10 buffer, DNA 0.2 µM |  | ΔTm | 5.4 ± 0.9 °C |
| COC1OC(C)C(OS(=O)(=O)O)C(OC2OC(C)C(OS(=O)(=O)O)C(OC3OC(C)C(OS(=O)(=O)O)C(OC4OC(C)C(OS(=O)(=O)O)C(OC5OC(C)C(OS(=O)(=O)O)C(OC6OC(C)C(OS(=O)(=O)O)C(OC7OC(C)C(OS(=O)(=O)O)C(OC8OC(C)C(OS(=O)(=O)O)C(OC9OC(C)C(OS(=O)(=O)O)C(OS(=O)(=O)O)C9O)C8O)C7O)C6O)C5O)C4O)C3O)C2O)C1O (stereo not drawn) |  |  | human plasma | 128 µg/mL |  | activated partial thromboplastin time | 40 ± 0.8 s |
| C=C(NC(=O)c1csc(-c2nc3c(cc2O)-c2nc(cs2)C(=O)NC(C(C)O)C(=O)NC(=C(C)OC)c2nc(cs2)C(=O)NC2c4nc(cs4)C(=O)NC(COC(=O)c4c5c6c(cccc6n4O)COC(=O)C(OC4CC(C)(O)C(N(C)C)C(C)O4)C2OC5)c2nc-3cs2)n1)C(N)=O (stereo not drawn) | Streptococcus pyogenes |  | 10 isolates | serum 50% |  | MIC50 | 0.0156 µg/mL (≈ 0.0109 µM) |
| N#CCNC(=O)c1ccc([C@H]2[C@@H](F)[C@@H](F)C[C@@H](F)[C@H]2F)cc1 |  | liver microsome stability | rat liver microsomes | 1 µM |  | hepatic clearance | 6.1 mL/min/kg |
| C[n+]1cccc2cc(/C=N/NC(=O)c3cccc(C(=O)N/N=C/c4ccc5c(ccc[n+]5C)c4)c3)ccc21 | 22CTA telomeric G4-DNA antiparallel | FRET melting |  | 1 µM, K10 buffer, DNA 0.2 µM, together with: ds26 10 µM |  | ΔTm | 5.2 ± 0.3 °C |

Excerpt of the above:
| Compound | target or system | assay | system | conditions | scale | endpoint | result |
| --- | --- | --- | --- | --- | --- | --- | --- |
| C[n+]1cccc2cc(/C=N/NC(=O)N/N=C/c3ccc4c(ccc[n+]4C)c3)ccc21 | 22CTA telomeric G4-DNA antiparallel | FRET melting |  | 1 µM, K10 buffer, DNA 0.2 µM |  | ΔTm | 5.4 ± 0.9 °C |
| COC1OC(C)C(OS(=O)(=O)O)C(OC2OC(C)C(OS(=O)(=O)O)C(OC3OC(C)C(OS(=O)(=O)O)C(OC4OC(C)C(OS(=O)(=O)O)C(OC5OC(C)C(OS(=O)(=O)O)C(OC6OC(C)C(OS(=O)(=O)O)C(OC7OC(C)C(OS(=O)(=O)O)C(OC8OC(C)C(OS(=O)(=O)O)C(OC9OC(C)C(OS(=O)(=O)O)C(OS(=O)(=O)O)C9O)C8O)C7O)C6O)C5O)C4O)C3O)C2O)C1O (stereo not drawn) |  |  | human plasma | 128 µg/mL |  | activated partial thromboplastin time | 40 ± 0.8 s |
